# Measurements of several laboratories.
# Compare with care: the assays were run in different laboratories. Several values in a cell are separate wells, animals, samples, runs or records. ± gives the spread as reported.
# Rhomboid protease AarA: Rhomboid protease AarA (Providencia stuartii, UniProt P46116)
# CASP1: Caspase-1 (CASP1, Homo sapiens, UniProt P29466)
# T1: G-quadruplex RNA, G-quadruplex (Homo sapiens); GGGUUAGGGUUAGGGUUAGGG
Structure (SMILES),target,test,system,setting,scale,endpoint,result
CC(C)[C@@H]1NC(=O)[C@H](Cc2ccccc2)NC(=O)CSC[C@@H](C(N)=O)NC(=O)[C@H](CCC(=O)O)NC(=O)[C@H](CO)NC(=O)[C@H](Cc2c[nH]c3cccc(Cl)c23)NC(=O)[C@H](C2CCCCC2)NC(=O)[C@H](C(C)C)NC(=O)[C@H](Cc2ccc(O)cc2)NC(=O)[C@H](CC(=O)O)NC(=O)[C@H](Cc2c[nH]c3ccccc23)NC(=O)[C@H](Cc2ccc(N)nc2)NC(=O)[C@H](Cc2c[nH]c3ccc(Cl)cc23)NC(=O)[C@H](CCC(=O)O)NC1=O,"Interleukin-1 receptor-like 2 (IL1RL2, Homo sapiens, UniProt Q9HB29)","reporter gene (SEAP), inhibitor, HEK-Blue IL-36R reporter",HEK-Blue IL-36R cells,"0.14 µM, 6 h, together with: IL-36γ 100 ng/mL",,remaining activity,98.2%
C#CCCCC(=O)NCC1CN(CCCCCNC(=O)CN(CCN)C(=O)Cn2cnc3c(=O)[nH]c(N)nc32)CCN(CCCCCNC(=O)CN(CCN)C(=O)Cn2cnc3c(=O)[nH]c(N)nc32)CCN(CCCCCNC(=O)CN(CCN)C(=O)Cn2cnc3c(=O)[nH]c(N)nc32)CCN1CCCCCNC(=O)CN(CCN)C(=O)Cn1cnc2c(=O)[nH]c(N)nc21 (centres unmarked),"T1, G-quadruplex RNA, G-quadruplex (Homo sapiens)",FRET melting,,,,change in melting temperature,17.7 °C
CC(=O)NCCC(=O)Nc1ccccc1OCC1CC1,Rhomboid protease AarA,"enzyme activity, inhibitor, fluorogenic peptide substrate",,,,IC50,inactive
CSCC[C@H](NC(=O)[C@H](CCC(N)=O)NC(=O)[C@H](CCCCN)NC(=O)[C@H](CCCNC(=N)N)NC(=O)[C@H](Cc1ccc(O)cc1)NC(=O)[C@H](CCCNC(=N)N)NC(=O)[C@H](CO)NC(=O)[C@H](Cc1ccc(O)cc1)NC(=O)[C@H](CO)NC(=O)[C@H](CC(=O)O)NC(=O)[C@@H](NC(=O)[C@@H](N)Cc1ccccc1)[C@@H](C)O)C(=O)N[C@@H](C)C(=O)N[C@H](C(=O)N[C@@H](CCCCN)C(=O)N[C@@H](CCCCn1cc(C[C@H](NC(=O)CNC(=O)[C@H](CO)NC(=O)[C@H](CCCNC(=N)N)NC(=O)[C@H](CO)NC(=O)[C@H](CC(C)C)NC(=O)[C@H](CC(C)C)NC(=O)CNC(=O)[C@H](C)NC(=O)[C@H](CC(C)C)NC(=O)[C@H](CCCNC(=N)N)NC(=O)[C@H](Cc2c[nH]cn2)NC(=O)[C@@H](NC(=O)[C@@H](N)C(C)C)[C@@H](C)O)C(=O)N[C@H](C(=O)N[C@H](C(=O)N[C@@H](CCCCN)C(=O)N[C@@H](CC(N)=O)C(=O)N[C@@H](CC(N)=O)C(=O)N[C@@H](Cc2ccccc2)C(=O)N[C@H](C(=O)N2CCC[C@H]2C(=O)N[C@H](C(=O)N[C@@H](CC(N)=O)C(=O)N[C@H](C(=O)NCC(=O)N[C@@H](CO)C(=O)N[C@@H](CCCCN)C(=O)N[C@@H](C)C(=O)N[C@@H](Cc2ccccc2)C(N)=O)C(C)C)[C@@H](C)O)C(C)C)C(C)C)C(C)C)nn1)C(=O)N[C@@H](Cc1ccc(O)cc1)C(=O)N[C@@H](CC(C)C)C(=O)N[C@@H](C)C(=O)N[C@@H](C)C(=O)N[C@H](C(=O)N[C@@H](CC(C)C)C(=O)NCC(=O)N[C@@H](CCCCN)C(=O)N[C@@H](CCCNC(=N)N)C(=O)N[C@@H](Cc1ccc(O)cc1)C(=O)N[C@@H](CCCCN)C(=O)N[C@@H](CCC(N)=O)C(=O)N[C@@H](CCCNC(=N)N)C(=O)N[C@H](C(=O)N[C@@H](CCCCN)C(=O)N[C@@H](CC(N)=O)C(=O)N[C@@H](CCCCN)C(N)=O)C(C)C)C(C)C)C(C)C,"VIPR2 (Homo sapiens, UniProt P41587)","cAMP accumulation, antagonist",transfected COS-7 cells,"first quantifiable antagonism, together with: PACAP-38 agonist",,A2,4.47 µM
O=C1c2sc(-c3ccc(N4CCC(F)C4)nc3F)nc2CCN1c1cccnc1 (centres unmarked),"TAR DNA-binding protein 43, aggregated (TARDBP, Homo sapiens, UniProt Q13148)",radioligand binding,"human, FTLD-TDP type B extract",together with: radioligand 4.94 nM,,specific binding,0.904 nM and 1.17 nM
CCCCCC(O)/C=C/C=O (centres unmarked),"TUBB3 (Homo sapiens, UniProt Q13509)","IA-probe cysteine labelling, covalent modifier, competitive isoTOP-ABPP","proteome, soluble, MDA-MB-231","100 µM, in vitro","reference: DMSO over compound, higher = stronger blockade",isoTOP-ABPP ratio,15
CC1C(=O)N(C(=O)c2ccccc2)C1c1ccccc1 (racemic),Rhomboid protease AarA,"substrate cleavage, inhibitor, gel-based",,,,IC50,inactive
CCCCOc1ccc(C(=O)OCCN2CC=CCC2)cc1,"CHRM4 (Homo sapiens, UniProt P08173)",,membranes,"100 µM, 15 h, no carbachol",reference: control,basal binding,0.72 ± 0.03 fold
Cc1ccc(N=C2CC(=O)c3sc(C)nc3C2=O)cc1,"KMT5A (Homo sapiens, UniProt Q9NQR1)","enzyme activity, radiometric filter",,"8 h, 1 µM native enzyme",,Hill coefficient,3.8
O=C(O)/C=C/c1ccccc1,"PAL1 (Petroselinum crispum, UniProt P24481, Y110F)","binding, ITC",,,,ΔG,-6.6 kcal/mol
CC(=O)N1CCC[C@H]1C(=O)N[C@H](C(=O)NCC(=O)N[C@@H](CC(=O)O)C(=O)COC(=O)c1c(C)cccc1C)C(C)(C)C,CASP1,"enzyme activity, inhibitor",,,,kinact/KI,9800 M⁻¹ s⁻¹
O=C1Cc2cc(Br)ccc2N1,"Dehaloperoxidase B, ferric (Amphitrite ornata, UniProt Q9NAV7)","product, HPLC",,"together with: 5-bromoindole 500 µM, H2O2 50 µM",,share of total products,46.6%
CC[C@H](C)[C@H](NC(C)=O)C(=O)N[C@@H](CCC(=O)O)C(=O)N[C@H](C(=O)N[C@@H](CC(=O)O)C(=O)COC(=O)c1c(C)cccc1C)[C@@H](C)O,CASP1,"enzyme activity, inhibitor",,,,kinact/KI,94500 M⁻¹ s⁻¹
CC(C)Oc1cc(Cl)ccc1CNc1cc(-c2ccccc2)nc2ncnn12,"GPR3 (Homo sapiens, UniProt P46089, M156A)","cAMP level, cAMP GloSensor",,1 nM,higher = more cAMP,cAMP luminescence,31500 a.u. and 44600 a.u. and 30500 a.u. and 34500 a.u.
CCN(CC)C(CO)c1cccc2c(C)c(C)oc12 (centres unmarked),"LPAR1 (Homo sapiens, UniProt Q92633, W210A)","G-protein dissociation, agonist, NanoBiT",HEK-293T,"100 pM, W210A mutant",reference: baseline luminescence,fold change,0.998 and 1 and 1.06 and 1.01 and 0.981 and 1.02
COc1ccc(Cl)cc1NC(=O)CCl,Rhomboid protease AarA,"enzyme activity, inhibitor, fluorogenic peptide substrate",,,,IC50,inactive
N=C(N)NCCC[C@H](NC(=O)[C@H](Cc1ccc(O)cc1)NC(=O)CNC(=O)[C@H](Cc1c[nH]cn1)NC(=O)[C@H](Cc1c[nH]cn1)NC(=O)[C@H](CCCNC(=N)N)NC(=O)[C@H](CCCCN)NC(=O)[C@H](CCC(=O)O)NC(=O)[C@H](Cc1c[nH]cn1)NC(=O)[C@H](COP(=O)(O)O)NC(=O)[C@@H](N)CC(=O)O)C(=O)N[C@@H](CCCNC(=N)N)C(=O)N[C@@H](CCCCN)C(=O)N[C@@H](Cc1ccccc1)C(=O)N[C@@H](Cc1c[nH]cn1)C(=O)N[C@@H](CCC(=O)O)C(=O)N[C@@H](CCCCN)C(=O)N[C@@H](Cc1c[nH]cn1)C(=O)N[C@@H](Cc1c[nH]cn1)C(=O)O,"TMEM97 (Homo sapiens, UniProt Q5BJF2)",SPR,,"concentration not given, 25 °C",reference: Rmax,binding response,12%
CC(=O)N[C@@H](Cc1ccc(C)cc1)C(=O)N[C@@H](CCCC(=O)O)C(=O)N[C@H](C(=O)N[C@@H](CC(=O)O)C(=O)COC(=O)c1c(C)cccc1C)C(C)(C)C,CASP1,"enzyme activity, inhibitor",,,,kinact/KI,49000 M⁻¹ s⁻¹
Cn1c(=O)n(C2CCC(=O)NC2=O)c2ccc(C3CCN(CC(=O)Nc4cccc(CS(=O)(=O)N5CC[C@H](Nc6cccc(-c7sc(C(=O)O)c(OCC(=O)O)c7Cl)c6)CC5(C)C)c4)CC3)cc21 (some centres unmarked),"PTPN2 (Homo sapiens, UniProt P17706)","degrader, bio-layer interferometry",,"500 nM, biotinylated protein immobilised",higher = more binding,BLI binding response,0.413 a.u. and 0.223 a.u.
O=c1[nH]c(O)nc2c(CN[C@H](CO)CCP(=O)(O)O)c[nH]c12,"Uncharacterized protein (Trypanosoma cruzi, UniProt Q4DRC3)","inhibitor, spectrophotometric IMP formation",,,reference: human HGPRT Ki over Uncharacterized protein Ki,selectivity ratio,> 110
CC(=O)N[C@H](C(=O)N[C@@H](CCC(N)=O)C(=O)N[C@@H](CO)C(=O)N[C@@H](CC(=O)O)C(=O)COC(=O)c1c(C)cccc1C)C(C)(C)C,CASP1,"enzyme activity, inhibitor",,,,kinact/KI,16000 M⁻¹ s⁻¹
CCCNC(=O)c1ccc2c(c1)CC(=O)N2Cc1cccc(F)c1,"Heat shock protein HSP 90-alpha, N-terminal domain (HSP90AA1, Homo sapiens, UniProt P07900)","SPR, two-state model",N-terminal domain,,,kon,1710 ± 1980 M⁻¹ s⁻¹
CC(=O)N[C@@H](Cc1c[nH]c2ccccc12)C(=O)N[C@@H](CCCNC(=N)N)C(=O)N[C@@H](CO)C(=O)N[C@@H](CC(=O)O)C(=O)COC(=O)c1c(C)cccc1C,CASP1,inhibitor,,recombinant enzyme,,kobs/[I],2.34e+06 M⁻¹ s⁻¹
[N-]=[N+]=N[C@]1(COP(=O)(O)OP(=O)(O)OP(=O)(O)O)O[C@@H](n2ccc(N)nc2=O)[C@@H](F)[C@@H]1O,"Gag-Pol polyprotein, reverse transcriptase (gag-pol, Human immunodeficiency virus type 1 group M subtype B, UniProt P04585)","nucleotide incorporation, substrate",HIV-1,together with: RNA template,,Vmax,0.42 product fraction
Nc1ncnc2c1ncn2C1OC(CN(CCCC2CNCc3c2ccc(Cl)c3Cl)CCC(N)C(=O)O)C(O)C1O (mixture of isomers),"PNMT (Homo sapiens, UniProt P11086)",ITC,,"first site, SAH bound",,−TΔS-1,-14.8 kcal/mol
CCCCCCCCCCCCCCCC(=O)OCC(CSC[C@H](N)C(=O)N[C@@H](CO)C(=O)N[C@@H](CCCCN)C(=O)N[C@@H](CCCCN)C(=O)N[C@@H](CCCCN)C(=O)N[C@@H](CCCCN)C(=O)NCCCCCC(=O)N[C@@H](CCCCN)C(=O)N[C@@H](CC(C)C)C(=O)N[C@H](C(=O)N[C@@H](Cc1ccccc1)C(=O)N[C@@H](Cc1ccccc1)C(=O)N[C@@H](Cc1ccc2ccccc2c1)C(=O)O)C(C)C)OC(=O)CCCCCCCCCCCCCCC (some centres unmarked),"Amyloid-beta precursor protein, fibrillar amyloid-beta (APP, Homo sapiens, UniProt P05067)",TEM,,"2.0 eq, 28 h, fibril 5, together with: APP 20 µM",,fibril diameter,17.4 nm

# Excerpt of the above:
Structure (SMILES),target,test,system,setting,scale,endpoint,result
CC(C)Oc1cc(Cl)ccc1CNc1cc(-c2ccccc2)nc2ncnn12,"GPR3 (Homo sapiens, UniProt P46089, M156A)","cAMP level, cAMP GloSensor",,1 nM,higher = more cAMP,cAMP luminescence,31500 a.u. and 44600 a.u. and 30500 a.u. and 34500 a.u.
CC(=O)N[C@@H](Cc1ccc(C)cc1)C(=O)N[C@@H](CCCC(=O)O)C(=O)N[C@H](C(=O)N[C@@H](CC(=O)O)C(=O)COC(=O)c1c(C)cccc1C)C(C)(C)C,CASP1,"enzyme activity, inhibitor",,,,kinact/KI,49000 M⁻¹ s⁻¹
N=C(N)NCCC[C@H](NC(=O)[C@H](Cc1ccc(O)cc1)NC(=O)CNC(=O)[C@H](Cc1c[nH]cn1)NC(=O)[C@H](Cc1c[nH]cn1)NC(=O)[C@H](CCCNC(=N)N)NC(=O)[C@H](CCCCN)NC(=O)[C@H](CCC(=O)O)NC(=O)[C@H](Cc1c[nH]cn1)NC(=O)[C@H](COP(=O)(O)O)NC(=O)[C@@H](N)CC(=O)O)C(=O)N[C@@H](CCCNC(=N)N)C(=O)N[C@@H](CCCCN)C(=O)N[C@@H](Cc1ccccc1)C(=O)N[C@@H](Cc1c[nH]cn1)C(=O)N[C@@H](CCC(=O)O)C(=O)N[C@@H](CCCCN)C(=O)N[C@@H](Cc1c[nH]cn1)C(=O)N[C@@H](Cc1c[nH]cn1)C(=O)O,"TMEM97 (Homo sapiens, UniProt Q5BJF2)",SPR,,"concentration not given, 25 °C",reference: Rmax,binding response,12%
